Experimental data from different studies.
Each numbered part is a random draw from the data of one study; scales do not carry over between parts. Substitutions count along the parent as printed.

Study 1 — target: tungstate, free oxyanion; method: microfluidic competitive inhibition; medium: in vitro, cell-free expressed; tested at: not given; direction: lower = stronger binding
Setting: derived from inhibition constants, unchanged parent 2230 nM
Starting sequence: PafA, mature enzyme, eGFP fusion (Elizabethkingia meningoseptica, UniProt Q9KJX5); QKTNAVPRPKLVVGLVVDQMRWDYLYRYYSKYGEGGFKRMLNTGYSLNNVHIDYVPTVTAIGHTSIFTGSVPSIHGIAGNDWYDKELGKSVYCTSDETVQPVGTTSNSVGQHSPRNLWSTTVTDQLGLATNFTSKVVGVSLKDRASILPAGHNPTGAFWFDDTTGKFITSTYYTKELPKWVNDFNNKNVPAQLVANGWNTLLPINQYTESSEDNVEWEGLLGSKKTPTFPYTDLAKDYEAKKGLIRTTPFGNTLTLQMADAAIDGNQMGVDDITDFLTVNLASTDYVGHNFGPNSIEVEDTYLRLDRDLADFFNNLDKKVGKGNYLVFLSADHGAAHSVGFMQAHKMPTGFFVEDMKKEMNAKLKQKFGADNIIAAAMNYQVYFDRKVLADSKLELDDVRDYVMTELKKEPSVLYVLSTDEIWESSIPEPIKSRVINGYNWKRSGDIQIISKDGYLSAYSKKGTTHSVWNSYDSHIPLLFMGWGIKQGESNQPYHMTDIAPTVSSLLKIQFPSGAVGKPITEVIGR
Change	oxyanion analog dissociation constant
K241V	2.29 µM
I485G	1.4 µM
L389G	1.44 µM
N491V	2.38 µM
L281V	4.27 µM
Y32V	3.22 µM
L394G	2.41 µM
K387V	2.43 µM

Study 2 — observed: binding; method: phage display NGS; form: peptide; tested at: concentration not given; setting: normalized abundance; baseline: input library
Target: UDP-N-acetylglucosamine--peptide N-acetylglucosaminyltransferase 110 kDa subunit (OGT, Homo sapiens, UniProt O15294)
Chain of UniProt O15294 (whole entry, looked up): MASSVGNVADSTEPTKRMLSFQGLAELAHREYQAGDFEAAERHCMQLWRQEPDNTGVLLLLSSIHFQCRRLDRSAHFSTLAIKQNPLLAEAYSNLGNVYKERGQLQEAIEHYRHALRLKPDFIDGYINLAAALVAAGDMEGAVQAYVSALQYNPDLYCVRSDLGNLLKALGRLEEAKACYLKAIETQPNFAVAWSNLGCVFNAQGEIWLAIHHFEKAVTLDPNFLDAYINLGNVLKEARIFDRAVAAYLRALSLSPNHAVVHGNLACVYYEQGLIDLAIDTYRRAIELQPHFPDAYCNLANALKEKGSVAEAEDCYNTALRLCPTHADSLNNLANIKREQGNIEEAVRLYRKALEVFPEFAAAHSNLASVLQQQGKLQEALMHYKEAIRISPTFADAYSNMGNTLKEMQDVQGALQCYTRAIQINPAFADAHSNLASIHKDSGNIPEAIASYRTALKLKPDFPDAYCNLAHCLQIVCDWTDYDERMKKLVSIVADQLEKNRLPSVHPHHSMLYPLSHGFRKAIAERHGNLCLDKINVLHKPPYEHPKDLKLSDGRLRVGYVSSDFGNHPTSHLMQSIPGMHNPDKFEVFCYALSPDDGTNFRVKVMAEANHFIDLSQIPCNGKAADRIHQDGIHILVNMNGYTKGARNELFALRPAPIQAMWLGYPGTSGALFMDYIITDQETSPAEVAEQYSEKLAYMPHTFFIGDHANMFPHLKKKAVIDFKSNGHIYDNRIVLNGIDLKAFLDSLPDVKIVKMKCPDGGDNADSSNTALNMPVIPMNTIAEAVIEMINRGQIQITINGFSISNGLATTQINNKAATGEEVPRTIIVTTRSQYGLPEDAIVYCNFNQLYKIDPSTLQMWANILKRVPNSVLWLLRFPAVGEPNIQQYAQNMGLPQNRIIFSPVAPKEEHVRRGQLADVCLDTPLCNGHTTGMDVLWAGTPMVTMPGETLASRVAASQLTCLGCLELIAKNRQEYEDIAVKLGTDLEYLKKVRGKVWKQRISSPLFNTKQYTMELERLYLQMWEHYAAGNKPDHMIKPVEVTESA
Sequence	enrichment fold change
TWQWNAHHHHGMSGV	12.8
ERNFTHHVHRDPHR	5.59
FLPQYKIEVPFSVYK	6.28
DYKPKYQITAAEAG	7.23
HYGQMIHHFPQGFHD	7.64
QYQHRSYMPFYQIAT	68.9

Study 3 — target: CCNF, cyclin fold, Cln2 fusion (human); method: yeast growth competition, sequencing; medium: yeast; setting: strong parent motif; baseline: not given; direction: higher = stronger binding; starting sequence: viral docking peptide; KGVKRKLFAEDSS
Change	normalised enrichment score
K4W	5.94
D11R	7.59
V3H	2.46
S12D	7.74
E10G	7.72
L7M	0.3
V3P	8.06
F8Q	1.11
V3A	7.81
S12E	7.05
E10R	6.79
K4F	6.67
S12V	8.15
G2H	8.23
K6S	6.98
A9L	8.3
E10L	7.71

Study 4 — target: Sox, HMG box (Pigoraptor chileana); method: Spec-seq; form: double-stranded DNA, one strand shown; medium: in vitro; tested at: not given; setting: whole probe, mean of replicates; baseline: not given; direction: lower = stronger binding; shared flanks, not repeated: GAGTCGTCTCGTCAGCAC … CCGTAGAGCACTCAGGTC
Construct (chain): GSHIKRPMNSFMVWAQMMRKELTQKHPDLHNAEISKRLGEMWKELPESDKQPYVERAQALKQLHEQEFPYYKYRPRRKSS
Oligonucleotide	relative binding energy [ln ratio]
CATGTGA	0.741
CATCAAC	0.0822
CGTAGTT	0.662
CCCTGTT	-0.904
TCTAGTT	0.128
GCCCGTT	1.05
CATGATC	0.681
CATCACT	0.437
